Measurements from different studies.
Compare with care: the assays were run in different laboratories. ± gives the spread as reported.
UniProt P38646, sequence (whole entry, looked up): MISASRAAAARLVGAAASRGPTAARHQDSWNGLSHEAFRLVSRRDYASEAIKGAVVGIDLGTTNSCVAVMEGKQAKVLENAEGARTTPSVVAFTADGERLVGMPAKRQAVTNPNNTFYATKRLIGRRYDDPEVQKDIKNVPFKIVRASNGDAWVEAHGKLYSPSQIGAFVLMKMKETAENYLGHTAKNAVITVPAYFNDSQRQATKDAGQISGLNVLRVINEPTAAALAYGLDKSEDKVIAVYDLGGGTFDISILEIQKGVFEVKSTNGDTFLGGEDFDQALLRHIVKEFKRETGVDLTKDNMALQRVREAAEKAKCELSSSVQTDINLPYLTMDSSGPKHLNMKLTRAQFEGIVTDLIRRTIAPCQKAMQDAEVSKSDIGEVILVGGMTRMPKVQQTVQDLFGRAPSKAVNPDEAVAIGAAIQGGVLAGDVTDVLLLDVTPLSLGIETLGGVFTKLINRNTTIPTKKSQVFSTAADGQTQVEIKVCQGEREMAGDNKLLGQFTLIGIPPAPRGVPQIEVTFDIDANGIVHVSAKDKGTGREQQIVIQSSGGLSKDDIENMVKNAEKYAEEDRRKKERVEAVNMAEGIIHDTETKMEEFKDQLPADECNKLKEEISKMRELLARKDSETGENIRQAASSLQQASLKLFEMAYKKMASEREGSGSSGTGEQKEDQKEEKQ

CC(C)NCCCC[C@@H]1NC(=O)[C@H](Cc2ccc(O)cc2)NC(=O)[C@H](Cc2ccccc2)NC(=O)CC[C@H](C(=O)N[C@@H](CCCCNC(C)C)C(=O)N[C@@H](CCCCNC(=O)[C@H](CCC(=O)O)NC(=O)[C@H](CCC(=O)O)NC(=O)[C@H](CCC(=O)O)NC(=O)CN2CCN(CC(=O)O)CCN(CC(=O)O)CC2)C(N)=O)NC(=O)CNC(=O)[C@H](Cc2ccc3ccccc3c2)NC(=O)[C@@H](CCCNC(=N)N)NC1=O [fluorine-18 labelled] gave an SUV of 0.73 ± 0.09 g/mL (PET; mouse, naive, bone; 57.5 min post-injection).
Under “decreased appetite leading to dose reduction”, CO[C@H]1C[C@@H]2CC[C@@H](C)[C@@](O)(O2)C(=O)C(=O)N2CCCC[C@H]2C(=O)O[C@H]([C@H](C)C[C@@H]2CC[C@@H](OC(=O)NCCOCCOCCOCCOCCOCCOCCOCCOCCC(=O)N3CCc4cc(Cn5nc(-c6ccc7oc(N)nc7c6)c6c(N)ncnc65)ccc4C3)[C@H](OC)C2)C[C@@H](O)[C@H](C)/C=C(\C)[C@@H](O)[C@@H](OC)C(=O)[C@H](C)C[C@H](C)/C=C/C=C/C=C/1C is recorded as 0% (dose-escalation trial; patients with advanced solid tumours; intravenous, all doses weekly, grade ≥3).
With C[C@H]1CN(c2n[nH]c3nc(N[C@H]4CC[C@H](NS(=O)(=O)CCC(F)(F)F)CC4)ncc23)CCO1 the relative abundance was 1.05 (HSPA9 (Homo sapiens, UniProt P38646); inhibitor, Kinobeads competition profiling; 0.032 µM; relative to: vehicle).
CCN(CCO)CCCC(C)Nc1ccnc2cc(Cl)ccc12 (stereo not shown): “patients with adverse event” 33% (item: Bicarbonate grade 1; newly diagnosed glioblastoma patients; oral, 800 mg/dose, with radiotherapy and temozolomide).
CCCN(CCC)CCNC(=O)c1cc(Sc2ccc(Cl)cc2)nc2ccccc12 has a maximum response of -3.06% (Vero-E6; CellTiter-Glo ATP; 72 h, first round 5-point; relative to: DMSO 0%, hyamine -100%, more negative, more toxic).
Under “mean corpuscular haemoglobin concentration”, COc1ccc2nc3cc(Cl)ccc3c(Nc3cc(CN4CCCC4)c(O)c(CN4CCCC4)c3)c2n1 is recorded as 378 g/L (mouse, blood; intraperitoneal, 14 mg/kg).
With CC(=O)c1c(C)c2cnc(Nc3ccc(C4CCN(CCS(C)(=O)=O)CC4)cn3)nc2n(C2CCCC2)c1=O the Tmax was 1.5 h (human, plasma; oral, 100 mg twice daily, single dose, monotherapy).
COc1ncnn2ccc(-c3cnc4nc(C)n(Cc5nnc([C@@H](C)F)o5)c4c3)c12: “incidence of amylase increased (all grades)” 14.3% (human patients; oral, dose not given).
The Tmax delay of C[C@]1(CO)Cc2ncn(-c3ccc(C#N)c(Cl)c3)c2C(=O)O1 is reported as 1 h (healthy subjects; oral, 10 mg, high-fat breakfast; relative to: fasted).
COc1cc2c(Oc3ccc4[nH]c(C)cc4c3F)ccnc2cc1OCC1(N)CC1 gave a Tinnitus incidence of 0% (paediatric refractory sarcoma patients; 10 mg).
For O=C(O)CCCOc1ccc(F)cc1-c1cc(-c2ccccc2C(F)(F)F)n(-c2ccccc2)n1, the blood chemistry was 15.1 ± 7.3 mg/dL (item: TG; Crl:CD(SD) rats, female, blood; iv, 25 µg/kg, 14 days).
O=C(Oc1ccc(F)cc1)[c-]1cccc1.[Fe+2].c1cc[cH-]c1 has a reduction potential of 488 mV (cyclic voltammetry; methanol/DMEM 1:1 with TBAPF6; concentration not given, Pt disk electrode, Ag/AgCl reference, together with: scan rate 100 mV/s).
CC(C)C[C@H](NC(=O)[C@H](CCCCN)NC(=O)OCC1c2ccccc2-c2ccccc21)C(=O)N[C@H](C(=O)N[C@@H](Cc1ccccc1)C(=O)N[C@@H](Cc1ccccc1)C(=O)N[C@@H](CCCCN)C(=O)NCC(=O)N[C@@H](Cc1ccccc1)C(=O)N[C@@H](C)C(=O)N[C@@H](Cc1c[nH]c2ccccc12)C(=O)N[C@@H](CC(N)=O)C(=O)N[C@H](C(=O)N[C@H]1CSSC[C@@H](C(=O)N[C@@H](Cc2c[nH]cn2)C(=O)N[C@@H](CCCNC(=N)N)C(=O)N[C@@H](CCCNC(=N)N)C(=O)N[C@@H](C)C(=O)N[C@@H](CC(N)=O)C(N)=O)NC(=O)[C@H](C(C)C)NC(=O)[C@H](CCCNC(=N)N)NC(=O)[C@H](C(C)C)NC(=O)CNC(=O)[C@H](CC(N)=O)NC(=O)[C@H](CCCNC(=N)N)NC(=O)[C@H](Cc2ccc(O)cc2)NC(=O)[C@H](C(C)C)NC1=O)C(C)C)C(C)C gave a basophils of 1.42 ± 0.07% (ICR mouse, blood; intramammary, 5 mg/kg, day 5, 3 d dosing).
CN1CC[C@@H](c2c(O)cc(O)c3c(=O)cc(-c4ccc(C(F)(F)F)cc4Cl)oc23)[C@@H]1CO — result for “patients with adverse event”: 0% (item: Syncope; relapsed B-cell malignancies; oral, 200 mg, grade 3-4, intermittent dosing).
CC(C)(C)NCc1ccc(Nc2ccnc3cc(Cl)ccc23)cc1O has a maximum response of -19.5% (Vero-E6; CellTiter-Glo ATP; 72 h, second round 5-point; relative to: DMSO 0%, hyamine -100%, more negative, more toxic).
O=C(c1ccc(F)c(F)c1Nc1ccc(I)cc1F)N1CC(O)([C@@H]2CCCCN2)C1 — result for “treatment-related adverse events”: 89% (human patients; oral, dose not given, dose escalation, suspension).

Some of these lines once more:
CCN(CCO)CCCC(C)Nc1ccnc2cc(Cl)ccc12 (stereo not shown): “patients with adverse event” 33% (item: Bicarbonate grade 1; newly diagnosed glioblastoma patients; oral, 800 mg/dose, with radiotherapy and temozolomide).
CN1CC[C@@H](c2c(O)cc(O)c3c(=O)cc(-c4ccc(C(F)(F)F)cc4Cl)oc23)[C@@H]1CO — result for “patients with adverse event”: 0% (item: Syncope; relapsed B-cell malignancies; oral, 200 mg, grade 3-4, intermittent dosing).
